Published values collected from several papers.
Every numbered part comes from another study and shows a few of its results, in no order.

Block 1 — technique: protein binding microarray; form: double-stranded DNA, one strand shown; sample: in vitro; concentration: not given; baseline: not given; direction: higher = stronger binding
Target: Histone acetyltransferase KAT6A, both winged helices, GST fusion (KAT6A, Homo sapiens, UniProt Q92794, residues 1-181)
Notes: 8-mer, flanks averaged, mean of 2 arrays, mostly near background
Residues (chain): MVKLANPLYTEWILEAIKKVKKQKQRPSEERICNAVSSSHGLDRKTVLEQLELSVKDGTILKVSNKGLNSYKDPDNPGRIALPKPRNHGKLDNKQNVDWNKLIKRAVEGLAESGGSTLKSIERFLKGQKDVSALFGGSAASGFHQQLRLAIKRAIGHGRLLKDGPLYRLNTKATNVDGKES
With `CGCCGCAG` the E-score was 0.127.
The E-score of `CCTTCCAG` is reported as -0.211.
For `CCGGGAGA`, the E-score was 0.172.
The E-score of `CACTGACA` is reported as -0.0121.
The E-score of `CCTGGGCG` is reported as -0.00209.
For `AAGGGACA`, the E-score was -0.0265.
For `GAGGTAGA`, the E-score was -0.173.
For `AATATCTC`, the E-score was -0.0673.
`CGAGGGCG` gave an E-score of 0.182.
For `GAGGGCAC`, the E-score was -0.102.
With `AGAGCACC` the E-score was -0.0297.
`ACCGCTTG` gave an E-score of 0.162.
The E-score of `CAGTTAGC` is reported as -0.0249.
`AGGTGGCC` has an E-score of -0.149.
For `ATCAGAGC`, the E-score was -0.0694.
`CGCGCTGA` gave an E-score of 0.298.
The E-score of `AACTCGCG` is reported as 0.257.
The E-score of `GCGTTCTA` is reported as 0.0974.
With `CATTGGCG` the E-score was 0.105.
`CGGAAATC` gave an E-score of 0.11.

Block 2 — technique: protein-binding microarray; form: double-stranded DNA, one strand shown; sample: in vitro; concentration: 250 nM; notes: 60-bp whole probe; added: salmon DNA 0.4 mg/ml; baseline: random background probes; direction: higher = stronger binding; all sequences stand within: GCCTAGCAC … GTCTTGATTCGCTTGACGCTGCTG
Target: Interferon regulatory factor 5, full length, phosphomimetic (IRF5, Homo sapiens, UniProt Q13568-2, residues 1-514, K96S/S451D/S453D/S456D/S462D)
`GGTGATTTCAGTTTTCTTTTGTGCTAG` has a log fluorescence of 2.65 z-score.
For `TTAGGACTGGGCTTCGGTTAGTGCTAG`, the log fluorescence was 0.201 z-score.
`TCAAAAATGCCCTTTTGGACTGTGCTA` has a log fluorescence of 0.215 z-score.
For `TTAGATTCCAGTTTAGATTAGTGCTAG`, the log fluorescence was 0.664 z-score.
The log fluorescence of `GGCGGTTTCGGGTTTCGGGACGTGCTA` is reported as 8.42 z-score.
For `TTAGGTATCGACTAACGGTTAGTGCTA`, the log fluorescence was 4.26 z-score.
The log fluorescence of `CTATAAAGCATCAGGAAAGCGTGCTAG` is reported as -0.206 z-score.
`AAAACTAGGGCATTTAGAAAAGTGCTA` gave a log fluorescence of 0.0734 z-score.
For `TGGGATTTTGTCCTCCCCTCGTGCTAG`, the log fluorescence was -0.429 z-score.
`GACGGTTTCGCGTATCGGGACGTGCTA` gave a log fluorescence of 2.39 z-score.
For `GACGGTTTCAGACTGGAGACGTGCTAG`, the log fluorescence was 0.68 z-score.
With `TCAGCTTCCTCTTTACTACTGTGCTAG` the log fluorescence was 0.602 z-score.
`GACGGACTGGTCACTGGGGACGTGCTA` gave a log fluorescence of -0.577 z-score.
For `TTAGAACTGAGACTGGATTAGTGCTAG`, the log fluorescence was -0.268 z-score.
For `GACGATAACGGGTATCGAGACGTGCTA`, the log fluorescence was 1.24 z-score.
`TGCCCTCTCCATACTTCCCAGTGCTAG` gave a log fluorescence of 0.134 z-score.
For `CAAGGCAAGAAACAAACAACGTGCTAG`, the log fluorescence was 0.212 z-score.
For `GACGGTATCGGTATAGGGACGTGCTAG`, the log fluorescence was 6.03 z-score.
`GACCGACTGGGTCTCGGGACGTGCTAG` gave a log fluorescence of -0.567 z-score.
`GACGGACTGCAACTGCTGACGTGCTAG` has a log fluorescence of -0.475 z-score.
`TTAGGTATCGGGATTGGGTTAGTGCTA` has a log fluorescence of 2.48 z-score.
The log fluorescence of `TCATTTTTAGCTTGCAAACTGTGCTAG` is reported as 0.466 z-score.
`GCAGGGCTCTCTTCTGCTTCCGTGCTA` gave a log fluorescence of -0.572 z-score.
With `GTAAACCATCCAAATGTTATGTGCTAG` the log fluorescence was 0.434 z-score.
The log fluorescence of `AACGGTCTCGGTCTCGGGACGTGCTAG` is reported as 0.511 z-score.

Block 3 — technique: RNA Bind-n-Seq; form: RNA; sample: in vitro; concentration: 365 nM; baseline: no-protein control; direction: higher = stronger binding
Target: RNA binding protein fox-1 homolog 2, RRM domain, GST-SBP tag (RBFOX2, Homo sapiens, UniProt O43251-10, residues 100-194)
Notes: natural RNA segment, single round, ends assumed
Residues (chain): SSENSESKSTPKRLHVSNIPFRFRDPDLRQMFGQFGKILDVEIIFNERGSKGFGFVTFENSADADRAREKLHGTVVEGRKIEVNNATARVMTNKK
For `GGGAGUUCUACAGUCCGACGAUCACACUCUCUCUGAGGGACUGUAGCUAUUAGAUACUGUCCUCACACCCUCGAGCUACCAGCCAGGGCUCUAAGUUGCUCUCGUGAUCUUAGUUAGAAAUACAGGCUACAGUUGGAAUUCUCGGGUGCCAA`, “RBNS enrichment (R)” read 0.252.
Under “RBNS enrichment (R)”, `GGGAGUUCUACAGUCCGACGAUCACUUGAUCAUUUUUAUAUUACUUUUGUAAAUAUUCUUGGCCACAUUCUACUUCAGCUCUGGAUGUGGUUACCAAGUAUCUGUAACCCUUGAGCCCCUAGACAGUAUUGCCUGGAAUUCUCGGGUGCCAA` is recorded as 0.636.
For `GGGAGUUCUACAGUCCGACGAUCAGAGAGAAAUGCCAUCAUGCUUACUGCUCUUUUGGAUUCUUCAUGCAGUGGCUUCCCAUUUGCUCUGGGAACAGUGCCUCUGUGCUGGUUAUAUGUAUGCACCACAUGUGUGGAAUUCUCGGGUGCCAA`, “RBNS enrichment (R)” read 0.576.
Under “RBNS enrichment (R)”, `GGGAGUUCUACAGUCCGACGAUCUGUAUAAAAGAGCCUUAAAUGGAACAUUGUUUUGAGAUCAAACUCCCUACCCUCACAAAAGUGGCCACGUUGCAAUAAAAAUUGUGGCAGAUUACAGAAUGUUGCCUUGUUGGAAUUCUCGGGUGCCAA` is recorded as 1.01.
Under “RBNS enrichment (R)”, `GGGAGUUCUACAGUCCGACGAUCCGGCCAGGGGCCAGCCCUCCAGCCGGGCCCCGACAUAGACUUGAAAGACUGCAACAGAAACUCCCCAGCCUAGCACUCCAGAGUCCAAGGGAAGCCACCUUCCAAGAACUUGGAAUUCUCGGGUGCCAA` is recorded as 0.148.
Under “RBNS enrichment (R)”, `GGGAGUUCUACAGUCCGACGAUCUCCUCAUCCUCCAUCCACAAGUGUCCUUCCAAGCAAGGUCCCCCUCUAGACAGUAGACAAGGACCCUUCUACUGAACCUCCAAGGAAAAGAAGAAGGAAAAGAAGAAGUGUGGAAUUCUCGGGUGCCAA` is recorded as 0.272.
For `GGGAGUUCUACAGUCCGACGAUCUUUGUAUAUAACACUUUCAGAGCCUUCCCACCCAUAGGUAGUUCUUAAACCAGGUGAAAGAGCAAAGUUCAAGUGCCUACUUAUGUGUCAUUCGCUCAUGUAAGAGUUUUUGGAAUUCUCGGGUGCCAA`, “RBNS enrichment (R)” read 0.21.
`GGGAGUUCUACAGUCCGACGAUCGCUGAACCUUUAAUAGGGGACCCUGGGGACCCAGCAGUAGCACGAGGGCUGCACACACAGGGCGGCUCUCUGUGCUGGUCCCUUCGUAGCUCCCCAGACCCGCUCUGUUCUGGAAUUCUCGGGUGCCAA` — result for “RBNS enrichment (R)”: 0.449.
`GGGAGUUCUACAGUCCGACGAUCAAUCCUUACUGAUAUUUAUAGAACAGUUGAUUUCCCCCAUCCCCAGUUUAUGGAUAUGCUGCUUUAAACUUGGAAGGGGGAGACAGGAAGUUUUAAUUGUUCUGACUAAAUGGAAUUCUCGGGUGCCAA`: “RBNS enrichment (R)” 0.489.
`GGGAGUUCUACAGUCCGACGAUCUCAGCGUUGGGGCUUCUUAGUAUCAGGACCUCUCUGAGGUAAGGACUUUCCUGUGUGGCCACAGAAACCUGGGGGCAUUCCGUUGCAGAGGUGUCCUCUGUCACGUGUGUUGGAAUUCUCGGGUGCCAA` — result for “RBNS enrichment (R)”: 0.285.
For `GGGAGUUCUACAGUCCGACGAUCGCCCCCCCACCUCGCCCGGCUCACACCCCCAAAGGGAGGGACCCACAUUGCACACACUGUAAGAAAUGCACUUUCCGAGGAAGGGGAUGGGGGAGCCCGGACACCCAGAGUGGAAUUCUCGGGUGCCAA`, “RBNS enrichment (R)” read 0.448.
`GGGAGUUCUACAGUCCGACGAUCCAAAAUUAGGGAGCUCUUGACAGAAAGCAGUUCUGAUGCUUACAUCUGGAAUCUGAGGCAUCCUCUGACUCCACUCAAAGAGGGUGAGGGCCUUCUUAAGAUACAAAUGGUGGAAUUCUCGGGUGCCAA` — result for “RBNS enrichment (R)”: 0.403.

Block 4 — technique: RNAcompete; form: RNA; sample: in vitro; concentration: 20 nM; notes: 7-mer, probes averaged, single round; baseline: mean of 7-mers; direction: higher = stronger binding
Target: PABPC1L2, full length, GST fusion (mouse, UniProt A0ABA7IW68)
Construct (chain): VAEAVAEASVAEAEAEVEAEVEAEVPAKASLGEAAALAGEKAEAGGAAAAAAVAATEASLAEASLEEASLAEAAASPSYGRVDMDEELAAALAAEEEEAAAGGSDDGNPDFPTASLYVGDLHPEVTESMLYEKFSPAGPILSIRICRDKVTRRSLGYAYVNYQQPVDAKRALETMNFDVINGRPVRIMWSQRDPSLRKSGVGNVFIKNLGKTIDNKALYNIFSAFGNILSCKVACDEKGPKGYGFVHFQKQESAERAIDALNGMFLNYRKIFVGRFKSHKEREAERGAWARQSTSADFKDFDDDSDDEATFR
`ACCAGAG` has a 7-mer Z-score of -0.0192.
With `UUCCAGU` the 7-mer Z-score was -0.255.
`UGGGGCU` has a 7-mer Z-score of 0.285.
For `ACUAUGC`, the 7-mer Z-score was -0.0446.
For `CAUAUUG`, the 7-mer Z-score was -0.0772.
The 7-mer Z-score of `UAUCUGC` is reported as -0.291.
The 7-mer Z-score of `UUAAGUC` is reported as -0.24.
For `AAUGCAC`, the 7-mer Z-score was 0.12.
`GUAUUGU` gave a 7-mer Z-score of -0.278.
For `AACACUU`, the 7-mer Z-score was 0.142.
`UUCCCCG` has a 7-mer Z-score of -0.485.
`AGUUGUU` has a 7-mer Z-score of -0.291.
The 7-mer Z-score of `AACAUAC` is reported as 0.425.
The 7-mer Z-score of `UAUUUAC` is reported as 0.137.
For `GAACCGG`, the 7-mer Z-score was -0.0844.
With `GAUUGAG` the 7-mer Z-score was -0.159.
With `AAGUUCA` the 7-mer Z-score was 0.109.
For `CUCUCGA`, the 7-mer Z-score was -0.119.
With `GCAUUUC` the 7-mer Z-score was -0.313.
For `CGUCUAA`, the 7-mer Z-score was -0.264.
With `CUUGAUG` the 7-mer Z-score was -0.175.
`CUCAAUC` has a 7-mer Z-score of -0.287.
`CGUCAAA` gave a 7-mer Z-score of 0.0533.
With `GACACCG` the 7-mer Z-score was -0.124.
The 7-mer Z-score of `AUGCAAU` is reported as -0.0881.

For quick reference, copied from above (block 4):
`CUCAAUC` has a 7-mer Z-score of -0.287.
For `AACACUU`, the 7-mer Z-score was 0.142.
With `GAUUGAG` the 7-mer Z-score was -0.159.
`CGUCAAA` gave a 7-mer Z-score of 0.0533.
The 7-mer Z-score of `AUGCAAU` is reported as -0.0881.
`AGUUGUU` has a 7-mer Z-score of -0.291.
The 7-mer Z-score of `AACAUAC` is reported as 0.425.
With `UUCCAGU` the 7-mer Z-score was -0.255.
For `CAUAUUG`, the 7-mer Z-score was -0.0772.
With `AAGUUCA` the 7-mer Z-score was 0.109.
For `AAUGCAC`, the 7-mer Z-score was 0.12.
`UUCCCCG` has a 7-mer Z-score of -0.485.
